Assay results of several laboratories.
Each numbered part is a random draw from the data of one study; scales do not carry over between parts. Changes are numbered by the printed parent chain.

Series 1
Target: CCNB2, cyclin fold, Cln2 fusion (human)
Method: yeast growth competition, sequencing
Medium: yeast
Notes: weak parent motif
Baseline: not given
Direction: higher = stronger binding
Starting sequence: FOXM1 docking peptide (human); PHLARPIKVESPP; partner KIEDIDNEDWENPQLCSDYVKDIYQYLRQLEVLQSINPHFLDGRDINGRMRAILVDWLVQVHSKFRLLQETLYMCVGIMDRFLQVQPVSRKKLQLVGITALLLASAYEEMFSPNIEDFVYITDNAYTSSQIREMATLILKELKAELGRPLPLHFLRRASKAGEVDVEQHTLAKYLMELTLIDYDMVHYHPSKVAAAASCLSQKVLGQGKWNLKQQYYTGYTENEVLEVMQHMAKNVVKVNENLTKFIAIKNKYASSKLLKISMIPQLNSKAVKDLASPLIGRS
Variant | normalised enrichment score
PALARPIKVESPP [H2A] | -0.826
PHLARPIKAESPP [V9A] | 0.000659
PHLAAPIKVESPP [R5A] | -1.03
PHAARPIKVESPP [L3A] | 0.00176
PHLARPIKVASPP [E10A] | -0.778
PHLARPIKVEAPP [S11A] | -0.737

Series 2
Molecule: BRCA1 RING domain (UniProt P38398)
Method: yeast two-hybrid
Medium: yeast
Notes: mostly zero background
Baseline: not given
Direction: higher = stronger interaction
target | lacZ reporter activity
UBE2I UBC core domain (UniProt P63279) | 0
UBE2S UBC core domain (UniProt Q16763) | 0
UBE2T UBC core domain (UniProt Q9NPD8) | 0
UBE2G1 UBC core domain (UniProt P62253) | 0
UBE2J2 UBC core domain (UniProt Q8N2K1) | 2400
UBE2E3 UBC core domain (UniProt Q969T4) | 0
UBE2L3 UBC core domain (UniProt P68036) | 0
UBE2B UBC core domain (UniProt P63146) | 0
UBE2O UBC core domain (UniProt Q9C0C9) | 0

Series 3
Target: NFE2L1, bZIP domain (human)
Method: DHFR protein complementation
Medium: yeast
Notes: single substitutions, most at no-binding floor
Baseline: wild-type JUN-FOS pair
Direction: higher = stronger binding
Starting sequence: JUN, bZIP domain (human); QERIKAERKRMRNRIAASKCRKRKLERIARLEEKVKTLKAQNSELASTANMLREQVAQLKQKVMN; partner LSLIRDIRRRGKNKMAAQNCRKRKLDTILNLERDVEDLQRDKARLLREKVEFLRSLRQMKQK
Variant | binding fitness
S47G | -1.43 natural log
Q41H | -1.16 natural log
R53W | -1.67 natural log
A49R | -1.26 natural log
N42L | -1.47 natural log
E33L | -1.47 natural log
N42Q | -1.45 natural log
T37N | -1.46 natural log
T48E | -1.49 natural log
Q41V | -1.53 natural log
A49T | -1.32 natural log
E32K | -1.45 natural log
E32S | -1.35 natural log
A57E | -1.32 natural log
N42K | -1.45 natural log
V56H | -1.48 natural log
A49P | -1.55 natural log
Q55R | -1.38 natural log
E33S | -1.55 natural log

Series 4
Target: Interferon regulatory factor 3, full length, phosphomimetic (IRF3, Homo sapiens, UniProt Q14653, residues 1-427, S386D/S396D/S398D/S402D/T404D/S405D)
Method: protein-binding microarray
Molecule type: double-stranded DNA, one strand shown
Medium: in vitro
Tested at: 2540 nM top
Notes: 60-bp whole probe
With: salmon DNA 0.4 mg/ml
Baseline: random background probes
Direction: higher = stronger binding
Shared flanks, not repeated: GCCTAGCAC … GTCTTGATTCGCTTGACGCTGCTG
Construct (chain): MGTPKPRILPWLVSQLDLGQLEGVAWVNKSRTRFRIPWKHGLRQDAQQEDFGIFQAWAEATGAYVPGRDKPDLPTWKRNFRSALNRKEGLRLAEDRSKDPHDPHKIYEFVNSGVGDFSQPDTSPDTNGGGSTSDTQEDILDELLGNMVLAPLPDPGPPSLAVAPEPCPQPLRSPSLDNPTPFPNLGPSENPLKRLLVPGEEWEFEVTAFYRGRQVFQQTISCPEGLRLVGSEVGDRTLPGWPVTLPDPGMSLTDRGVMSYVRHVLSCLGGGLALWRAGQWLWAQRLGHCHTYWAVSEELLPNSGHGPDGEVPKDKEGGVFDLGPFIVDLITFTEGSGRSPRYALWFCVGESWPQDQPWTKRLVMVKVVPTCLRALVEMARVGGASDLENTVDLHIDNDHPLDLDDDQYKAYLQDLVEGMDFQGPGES
Strand | fitted relative affinity
TCAGCTTTCTCTTTCACACTGTGCTAG | 3.19 z-score
GACGGTTTCCTACTGTTGACGTGCTAG | 5.13 z-score
TAAGGACTGCTTTTCCTTTAGTGCTAG | 0.988 z-score
TCAGAAATCGGTGATCAGACTGTGCTA | -0.206 z-score
TTAGGTTTCGACACTGGATTAGTGCTA | 2.62 z-score
CCACATTTGATAAATCTTTGTGTGCTA | 0.476 z-score
CTAGGTATCCTTATCCTTTAGTGCTAG | 4.98 z-score
GGTACTCACCTCCAGGCTGAGTGCTAG | -0.0362 z-score
GACGGGATCCTTATCCTGACGTGCTAG | 2.84 z-score
TTAGGTCTACTACTGCTTTAGTGCTAG | -0.439 z-score
GACGGTCTCCTTTTCCTGAAGTGCTAG | 5.02 z-score
GACGGTTTCGGGAATCGGGACGTGCTA | 3.67 z-score
GACGATATCGCGTATCGAGACGTGCTA | 0.0912 z-score
TTTTTGTTGTTTTTTGGTTTGTGCTAG | 2.08 z-score
GACAGTCTCCTACTGCTGACGTGCTAG | 1.55 z-score
TTAGATTCCGGGACTGGATTAGTGCTA | 0.361 z-score
GACGAACTGAGTATCGAGATGTGCTAG | 0.0811 z-score
GACGGACTGGACACTGGGGGCGTGCTA | -0.444 z-score
TTAGGTTTCCCACTGCTTTAGTGCTAG | 4.57 z-score
CCAGGAAAAGGGATTCAGTTGTGCTAG | -0.0789 z-score
TTCGCTTTCTTTACCACATTGTGCTAG | 2.25 z-score
TTAGATATCGGGTAACGATTAGTGCTA | -0.0677 z-score

Series 5
Target: RING finger protein unkempt homolog, zinc fingers 1-6, SBP tag (UNK, Homo sapiens, UniProt Q9C0B0, residues 30-357)
Method: RNA Bind-n-Seq
Molecule type: RNA
Medium: in vitro
Tested at: 100 nM
Notes: RNA with constant flanks, vertebrate orthologous sites, ends assumed
Baseline: input RNA pool
Direction: higher = stronger binding
Strand | bound/input enrichment
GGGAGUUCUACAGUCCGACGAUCAACUAAAGGAGUUAGCAUCUUUAUUUUUGUAUCAAAGAUAAAGGUUAUUUUGGAAAUUAUUAGGAUUUUUACAUAACUCUGAAAUCUGUUGCUUUUGUAAACCAAUUGUUGGAUCUUAGGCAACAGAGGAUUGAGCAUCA | 0.327 ratio
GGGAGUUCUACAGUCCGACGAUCAGAAAAUUUUAGCCAGGAAUCUGAAGGUAGAAAUACAGGACCGUGGUUAUCUUCCUCCCUUAGAAAUAGAUGCACACCUUUGUUCUCUAGAAGGAGACGAGAGGGAAGAGAUGAAUCUUCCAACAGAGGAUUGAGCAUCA | 1.09 ratio
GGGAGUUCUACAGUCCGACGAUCACGCUUUGACGUGAAGAUAACCAUCUCCUUAUGACCCCCGACCGCAAGUGCCCCCGCCCCGUCUCCCGCCGUGCCCCUUCAAACACAGUUCUAGAAAUUAAAAGUAAAAAAAAAAGAAAACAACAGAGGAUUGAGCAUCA | 0.883 ratio
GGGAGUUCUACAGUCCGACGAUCCAUGUCCCUGUUACUGUGACAUUUAAAAUAUCCACAGUGCUCACUUUUUCCAAAUGAUUCUAGUAAUUACCUAGAAAUAUUUUUCUCUUACCUGUUAUUUAUCAAUUUUUCCCCAGUAUUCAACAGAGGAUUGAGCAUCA | 2.05 ratio
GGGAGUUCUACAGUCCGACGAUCAAAUUUAUUUCAUGCCCUGGACUCCCUAUCGUACCGAUACUUUAAUAGAAUAUGCUUCUUUAGAAGAUUUCCAAAACAGUCGCCAAACAACAACAUAUAAACUUCCAAAUCGAGUAGAUGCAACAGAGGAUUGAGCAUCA | 1.35 ratio
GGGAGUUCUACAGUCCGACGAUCUGUCUGCCUCAUUCUAAAAUUUACACAGUAGACCAUUUGUCACUCAUGCUGUCCCACGAAUAGUUUUUGUUUACGAUUUAUGACAGGUUUAUGUUACUUCUAUUUGGAUUUCUAUAUUUCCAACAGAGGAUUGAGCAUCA | 0.957 ratio
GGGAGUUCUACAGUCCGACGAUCCUUUUGUGUGAAAUAUGUCUACCCAGAGAAGUAUCACCUUAUAAAUAUUAUCAAAUAACUUAGCUAGAGUCUUCUUAGGUGUUAGAUUAUAUGUCAAGCAUUUAAGGUGAAUUUGAGAUGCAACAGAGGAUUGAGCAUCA | 0.23 ratio
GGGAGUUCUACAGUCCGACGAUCCUACUCUAAACAACUCAGGGCAGUAUUCUCGCUAUCCUUACAGUAACCUAAAUCAGGGAUUAGUUAACAAUACAGGGAUGAAUCAAAAUUUAGGCCUUACAAAUAAUACUCCAAUGAAUCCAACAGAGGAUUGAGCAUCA | 1.61 ratio
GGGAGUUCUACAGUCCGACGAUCAAAAACCCCGAUUUUAGAUGUGAUAUCUAGGCUUUCAUUCCAGUUUGUUUUUGUCUUGUUUAGAUACCAAUCUUUUAAAUUCUUGCAUUUUAGUAAGAAAGCUACCUUUUUAUGGAUGUUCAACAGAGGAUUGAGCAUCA | 0.627 ratio
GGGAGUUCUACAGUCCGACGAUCUUCAGGUACAACGGACUGGUUCACAGCAUUCCUUACACAGUUAUUUAUCAAGUACAAGUGUAGUUAAUUUUCAGGAUACAUCCAGGCAGUCAGCAUUAUCUUGCAGUCCAGUUGGAGAUGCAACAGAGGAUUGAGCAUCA | 0.978 ratio
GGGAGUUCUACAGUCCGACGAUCCUGUUGUUAAGCACUGUGCUGCAGCCCGUGUCUGACUUUAGUGUAACCUAGGAGAUUUUCUAGUUUUAUUUUAAUGACACUCUGAUUGGCGCCGAGCAGUGGGACAAGCUGUCUCUCCCACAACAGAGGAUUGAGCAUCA | 0.558 ratio

Series 6
Target: ABI1, truncated, D143A, DHFR fusion (Arabidopsis thaliana)
Method: DHFR PCA, deep sequencing
Medium: yeast
Notes: methotrexate growth selection, single substitutions
With: (+)-ABA 710 µM
Baseline: wild-type fitted maximum
Direction: higher = stronger binding
Starting sequence: PYL1, truncated, DHFR fusion (Arabidopsis thaliana); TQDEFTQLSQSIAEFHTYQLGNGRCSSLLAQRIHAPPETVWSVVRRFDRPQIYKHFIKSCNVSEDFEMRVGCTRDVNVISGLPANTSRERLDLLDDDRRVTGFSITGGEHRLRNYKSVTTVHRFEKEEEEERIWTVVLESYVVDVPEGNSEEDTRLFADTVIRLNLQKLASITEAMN
Variant | relative binding score [%]
R99H | 112
S104C | 84.9
L82S | 60
R155N | 82.1
Q2A | 108
G107Q | 99.5
N77R | 105
R74M | -1.94
G102Q | 89
Y18G | 94.3
F15V | 83.1
A170W | 54.2
E109I | 99
S87N | -15.4
S27L | 1.86

Excerpt of the above (series 2):
target | lacZ reporter activity
UBE2J2 UBC core domain (UniProt Q8N2K1) | 2400
UBE2L3 UBC core domain (UniProt P68036) | 0
UBE2B UBC core domain (UniProt P63146) | 0
UBE2E3 UBC core domain (UniProt Q969T4) | 0
UBE2S UBC core domain (UniProt Q16763) | 0
UBE2G1 UBC core domain (UniProt P62253) | 0
UBE2T UBC core domain (UniProt Q9NPD8) | 0
UBE2O UBC core domain (UniProt Q9C0C9) | 0
UBE2I UBC core domain (UniProt P63279) | 0
